Results of several laboratories.
Parts stem from different laboratories: compare values within a part only. Substitutions count along the parent as printed.

Sample 1 — technique: protein-binding microarray; form: double-stranded DNA, one strand shown; sample: in vitro; tested at: not given; reading: higher = stronger binding; measurement: E-score
Target: Protein C-ets-1 (ETS1, Homo sapiens, UniProt P14921, residues 1-441, K379A, full length assumed)
Setting: k-mer, scored over probes, only values ≥0.25
Target sequence (chain): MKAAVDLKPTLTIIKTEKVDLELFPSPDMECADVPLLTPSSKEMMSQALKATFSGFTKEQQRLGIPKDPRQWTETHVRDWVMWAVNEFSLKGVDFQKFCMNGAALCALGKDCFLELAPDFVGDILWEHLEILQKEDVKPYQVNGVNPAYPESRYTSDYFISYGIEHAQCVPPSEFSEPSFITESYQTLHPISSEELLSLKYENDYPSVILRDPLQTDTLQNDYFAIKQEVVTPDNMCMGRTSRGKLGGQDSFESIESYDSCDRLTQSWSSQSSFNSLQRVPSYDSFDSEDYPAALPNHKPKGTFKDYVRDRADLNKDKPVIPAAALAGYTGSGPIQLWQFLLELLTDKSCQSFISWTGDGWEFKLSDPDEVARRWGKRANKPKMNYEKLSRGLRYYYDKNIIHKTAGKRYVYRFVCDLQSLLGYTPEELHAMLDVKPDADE
CACCGGAA: 0.483
ACGGACCA: 0.253
GTCGGGGA: 0.266
ATGTACGC: 0.276
CGGTACAG: 0.316
AAGATACC: 0.256
CGTACGAC: 0.274
ACATGTTA: 0.254
CAAATACA: 0.279
TACAACCA: 0.315
AGGGGCGG: 0.38
GCGCGAAA: 0.264
GCGGGGTA: 0.288
CAAACACA: 0.28
ACACACCG: 0.295
CATATTAA: 0.288
GGAGGGGA: 0.366
CCGGCAAA: 0.352
GTCGGTAA: 0.337
ACGGAAGT: 0.369
GAACCGGA: 0.402
GGGGCGGA: 0.385
TCGACACA: 0.254
ACCTCCCC: 0.304
ACCCCACC: 0.285

Sample 2 — technique: RNA Bind-n-Seq; form: RNA; sample: in vitro; tested at: not given; relative to: input RNA pool; reading: higher = stronger binding; measurement: bound/input enrichment
Target: RING finger protein unkempt homolog, zinc fingers 1-6, GST-SBP tag (UNK, Homo sapiens, UniProt Q9C0B0, residues 30-357)
Chain of UniProt Q9C0B0 (30-357, looked up): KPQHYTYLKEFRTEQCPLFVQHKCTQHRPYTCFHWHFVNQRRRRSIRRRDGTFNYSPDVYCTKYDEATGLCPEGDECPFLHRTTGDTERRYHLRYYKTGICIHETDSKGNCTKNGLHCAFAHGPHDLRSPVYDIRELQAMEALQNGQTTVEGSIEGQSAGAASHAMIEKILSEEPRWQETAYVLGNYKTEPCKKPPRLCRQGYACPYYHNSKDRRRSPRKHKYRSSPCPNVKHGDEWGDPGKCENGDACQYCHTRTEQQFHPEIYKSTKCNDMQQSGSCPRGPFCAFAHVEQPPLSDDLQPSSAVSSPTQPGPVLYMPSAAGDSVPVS
Setting: RNA with constant flanks, human and mouse sites, ends assumed
Constant ends, left off below: GGGAGUUCUACAGUCCGACGAUC … CAACAGAGGAUUGAGCAUCA
GCUAGGAUUUAAAAAUAAAAAUCAGAGGCCUAUCUCCACUUUAAAUCUGUCCUGUAAAAGUUUUAUAAAUCAAAUGAAAGGUGACAUUGCCAGAAACUUACCAUUAACUUGCACUACUAG: 1.5 ratio
AUCUAUGCUAACCUCUCUGAUGAGAAGGCUUUCGUGUUUUCAGUUGCCUUGGCAGAAAUAAAUAGAAAAAUUAUCAAUCAAAGACUUAUUCUCUGAUAUUUGUCUUCAAACUCUGUUGGU: 0.634 ratio
UGGAGAGUGGGACCAAGACCCUUGGCCCCUGUGGAGGGGAACCACCUCCCCCCUCCUUCCCAGAGCUUCUGGAUGUUGUGGGAGGGAGGUGGGGGUGCCUGGCAGGCUCACCCCCAGGGG: 0.102 ratio
UGAAUUAAUUAUUAAUAUUUAAAAUACUUCAUUCCUUAACUCUCCCUCAUUUGCUUUGCCCACAGCCUAUUCAGUUCCUUUGUUUGGCAGGAUUCUGCAAAAUGUGUCUCACCCACUACU: 2.13 ratio
UUGGAGCAGCCCGUGGUGGUGCAGAGCGUGGGCACGGAUGGACGUGUCUUCCAUUUCCUAGUGUUUCAACUGAAUACCACAGACCUGGACUGUAACGAGGGUGUCAAGAAUUUGGCCUGG: 0.147 ratio
CUGAAGGAAACAGCAUUUAAAUUUAAAGCCCUAAAGAAGGUUGCGCAGUUAGCAGUUAUAAAUAGCCUGGAAAAGGCAUUUUGGAACUGGGUAGAAAAUUAUCCAGAUGAAUUUACAAAA: 1.82 ratio
AUGGAGAUGUAUCAACCUAGUGCUGUGGUAUUACAGUGUGGUGCAGACUCAUUAUCUGGUGAUAGACUGGGUUGUUUCAAUCUAACAGUCAAAGGUCAUGCUAAAUGUGUAGAAGUUGUA: 0.306 ratio
UGAAGAUGAUGUAAAUAAGCAAAGUUCAGUUAGAAAGAACUCACAAAAACAAAUAAAAAAUAGCAGUCUCCUUUCUUUUGACAGUGAAGAUGAAAAUGAGUAAAUAUGAAUAUUGUGGAC: 1.28 ratio

Sample 3 — technique: universal PBM; form: double-stranded DNA, one strand shown; sample: in vitro; tested at: 600 nM; reading: higher = stronger binding; measurement: E-score
Target: Sal-like protein 4, full length isoform A (SALL4, Homo sapiens, UniProt Q9UJQ4, residues 1-1053)
Chain of UniProt Q9UJQ4 (whole entry, looked up): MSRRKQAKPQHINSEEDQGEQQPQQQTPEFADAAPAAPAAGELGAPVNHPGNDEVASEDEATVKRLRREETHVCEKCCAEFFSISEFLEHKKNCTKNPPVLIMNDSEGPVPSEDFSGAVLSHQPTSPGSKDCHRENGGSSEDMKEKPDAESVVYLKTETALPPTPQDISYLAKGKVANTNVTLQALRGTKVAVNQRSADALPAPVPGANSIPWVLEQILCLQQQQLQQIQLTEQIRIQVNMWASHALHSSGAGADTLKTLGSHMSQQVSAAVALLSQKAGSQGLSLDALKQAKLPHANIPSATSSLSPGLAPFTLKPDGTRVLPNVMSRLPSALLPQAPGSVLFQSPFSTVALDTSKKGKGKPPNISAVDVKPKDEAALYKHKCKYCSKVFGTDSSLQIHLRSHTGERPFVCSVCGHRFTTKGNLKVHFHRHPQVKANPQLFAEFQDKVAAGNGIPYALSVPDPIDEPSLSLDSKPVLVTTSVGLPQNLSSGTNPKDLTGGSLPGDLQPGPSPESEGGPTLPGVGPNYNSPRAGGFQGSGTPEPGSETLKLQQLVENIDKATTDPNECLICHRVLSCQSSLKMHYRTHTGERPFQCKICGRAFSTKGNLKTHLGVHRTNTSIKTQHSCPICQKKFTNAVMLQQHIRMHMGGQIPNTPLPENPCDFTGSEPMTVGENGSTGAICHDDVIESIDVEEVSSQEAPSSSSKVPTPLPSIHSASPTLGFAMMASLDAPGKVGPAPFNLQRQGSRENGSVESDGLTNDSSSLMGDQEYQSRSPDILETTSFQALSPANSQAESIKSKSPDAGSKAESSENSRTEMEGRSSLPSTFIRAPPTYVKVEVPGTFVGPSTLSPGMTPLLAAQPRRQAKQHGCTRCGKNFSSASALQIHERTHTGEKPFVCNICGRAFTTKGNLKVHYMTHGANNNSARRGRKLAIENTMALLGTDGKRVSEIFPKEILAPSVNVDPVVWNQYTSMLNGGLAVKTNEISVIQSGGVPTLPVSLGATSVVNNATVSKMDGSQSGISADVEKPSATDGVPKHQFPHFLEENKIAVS
Setting: 8-mer, flanks averaged, mean of replicates
CGGCCCCC: -0.367
TCGGTCCA: -0.207
TCTGTTAA: 0.192
CCGACGTA: -0.124
ATACACTA: 0.231
ATACGCCG: -0.102
AGCACCTG: -0.0578
AGAATGGA: 0.0897
GGCCGGGA: -0.286
ACGACCTG: -0.186
ACGTGCAA: -0.0424
GGCCGTGA: -0.13
CGATCAAA: 0.00451
AGTCCACA: -0.0477
CCTCTCCC: -0.207
CTTGCGCC: -0.22
CAGCCTAA: -0.0847
GGCAACTA: 0.0115
GTATCCAA: -0.0465

Sample 4 — target: CCND1, cyclin fold, Cln2 fusion (human); technique: yeast growth competition, sequencing; sample: yeast; setting: strong parent motif; relative to: not given; reading: higher = stronger binding; measurement: normalised enrichment score
Starting sequence: E2F1 docking peptide (human); PPVKRRLDFETDH
D12A: 2.79
D12C: 3.37
R5H: 0.0201
R5M: 0.591
D12L: 2.82
K4G: 1.78
V3M: 0.319
K4S: 3.14
D12V: 2.95
R5I: 1.24
P2V: 1.53
K4H: 1.88
D8C: 3.08
R5W: 0.49
K4T: 1.54
E10V: 1.44
D8H: 1.49
P2Y: 1.25
R5E: 0.107
D8A: 1.57
P2M: 1.82
E10R: 1.28
F9T: 0.164
F9R: 0.259
P2I: 1.35

Sample 5 — technique: RNA Bind-n-Seq; form: RNA; sample: in vitro; tested at: 200 nM; setting: whole 134-nt RNA, ends assumed; added: 150 mM KCl; relative to: input library; reading: higher = stronger binding; measurement: log2 enrichment
Target: Fragile X messenger ribonucleoprotein 1, C-terminal low-complexity region (Fmr1, Mus musculus, UniProt P35922)
Constant ends, left off below: GGGAGUUCUACAGUCCGACGAUC … UGGAAUUCUCGGGUGUCAAGG
UCAAGUCCUGUGCUACACAUCGUAUGUACCGAAUCGGGGAAGGAAGGGAAGGGGAAAGUAUUAUGUUACGCCGUUCGGAUCUGCACUUCC: 0.467
UUUUCUCACGAUGCACCUCCCCCUGGCACUAAGAAAAAGCACUUAUCCAUUGAGCAGCUGAAUGCUCGUCGCAGGAAAGUAUGGCUCAGC: -0.528
UGGGAGGUGGAUUUUGUUUAUUUUUUUAGCUCAUUUCCAGGGGUGGGAAUUUUUUUUUAAUAUGUGUCAUGAAUAAAGUUGUUGUUGAAA: 0.654
AGUCCUGUGCUACACAUCGUAUGUACCGAAUCGGUUUUUUUGGAAAAAGGUUUUUGGAAAGUAUUAUGUUACGCCGUUCGGAUCUGCACU: -1.42
UUACUACCUCCGCCUUCAUUUCCGUCAGCAAUCCCGGCGCGGGCUCCCCGGCCCCCGCCAGCCCGCCUCCCCUCGCUGUGCCCGGGACCG: 0.389
CAAGUCCUGUGCUACACAUCGUAUGUACCGAAUCGGAAAAAGGUUUUUUUGGAGGAAAGUAUUAUGUUACGCCGUUCGGAUCUGCACUUC: -0.976
CACAGACAACACGCACCCACACAGGCACAGAGGGAAGGGGUUGGGAUGGGGACAGGGUGCACAGCAGGGCGGGGUAGGACCCCAGCCCCU: 1.2
CUCAAGUCCUGUGCUACACAUCGUAUGUACCGAAUCGGAAGGGGAAGGGGAAGGAAAGUAUUAUGUUACGCCGUUCGGAUCUGCACUUCC: 0.00321
UGCUGGAGUGGCAGAAGACUUUUGAGGAGAAGCUCACGCCGUUGCUGAGUGUGCGGGAGUCACUCUCAGAGGAAGAGGCCCAGAAGAUGG: -1.45

A few entries again (sample 5):
CUCAAGUCCUGUGCUACACAUCGUAUGUACCGAAUCGGAAGGGGAAGGGGAAGGAAAGUAUUAUGUUACGCCGUUCGGAUCUGCACUUCC: 0.00321
AGUCCUGUGCUACACAUCGUAUGUACCGAAUCGGUUUUUUUGGAAAAAGGUUUUUGGAAAGUAUUAUGUUACGCCGUUCGGAUCUGCACU: -1.42
UUUUCUCACGAUGCACCUCCCCCUGGCACUAAGAAAAAGCACUUAUCCAUUGAGCAGCUGAAUGCUCGUCGCAGGAAAGUAUGGCUCAGC: -0.528
CAAGUCCUGUGCUACACAUCGUAUGUACCGAAUCGGAAAAAGGUUUUUUUGGAGGAAAGUAUUAUGUUACGCCGUUCGGAUCUGCACUUC: -0.976
UUACUACCUCCGCCUUCAUUUCCGUCAGCAAUCCCGGCGCGGGCUCCCCGGCCCCCGCCAGCCCGCCUCCCCUCGCUGUGCCCGGGACCG: 0.389
UGCUGGAGUGGCAGAAGACUUUUGAGGAGAAGCUCACGCCGUUGCUGAGUGUGCGGGAGUCACUCUCAGAGGAAGAGGCCCAGAAGAUGG: -1.45
UGGGAGGUGGAUUUUGUUUAUUUUUUUAGCUCAUUUCCAGGGGUGGGAAUUUUUUUUUAAUAUGUGUCAUGAAUAAAGUUGUUGUUGAAA: 0.654
CACAGACAACACGCACCCACACAGGCACAGAGGGAAGGGGUUGGGAUGGGGACAGGGUGCACAGCAGGGCGGGGUAGGACCCCAGCCCCU: 1.2
UCAAGUCCUGUGCUACACAUCGUAUGUACCGAAUCGGGGAAGGAAGGGAAGGGGAAAGUAUUAUGUUACGCCGUUCGGAUCUGCACUUCC: 0.467
